Earlier results as cited in several papers.
Lines come from different studies, so protocols differ. Numbers after ± are the reported error. ≈ marks a conversion by molar mass, not a printed value.

| Structure (SMILES) | test | system | setting | scale | measurement | result |
| --- | --- | --- | --- | --- | --- | --- |
| CC1(O)CC23CC(O)C4(O)C(C5OC5C4(C)C)C(C)(O)C2CCC1C3O (stereo not drawn) | – | diabetic neuropathic pain model | dose not given | baseline: gabapentin | relative potency | 100 fold |
| COC[C@@H](NC(C)=O)C(=O)NCc1ccc(OCc2ccccc2)cc1 | psychomotor seizure protection | mouse 6 Hz seizure model | intraperitoneal, with: 32 mA stimulus | – | ED50 | < 15 mg/kg |
| O=[N+]([O-])c1ccc(-c2cc(C3CC4CCC3N4)cnc2F)cc1 (racemic) | spontaneous activity | mouse | – | – | ED50 | 0.22 mg/kg |
| O=C1N[C@@H](Cc2ccccc2)C(=O)N2CCC[C@@H]2C(=O)N[C@@H](Cc2ccccc2)C(=O)N[C@H]1Cc1c[nH]c2ccccc12 | antinociception | C57BL/6J mouse | intracerebroventricular, at peak response | – | ED50 | 1.74 nmol |
| C[C@@H](O)[C@H](NC(=O)[C@H]1NC(=O)[C@H]([C@@H](C)O)NC(=O)[C@H](CCCNC(=N)N)NC(=O)[C@@H](Cc2c[nH]c3ccccc23)NC(=O)[C@H](Cc2ccc(O)cc2)NC(=O)[C@@H](NC(=O)[C@H](N)Cc2ccccc2)CSSC1(C)C)C(N)=O | antagonist | guinea pig ileum | – | – | pA2 | 7.36 |
| C[C@]12CC[C@@H](O)C[C@@H]1CC[C@@H]1[C@@H]2C(=O)C[C@]2(C)C(C#N)=CC[C@@H]12 | loss of swimming reflex | tadpole | – | – | EC50 | 5.48 ± 0.12 µM |
| CC1(C)C(=O)N(c2ccc(C#N)c(C(F)(F)F)c2)C(=S)N1c1ccc(C(N)=O)c(F)c1 | – | human, metastatic castration-resistant prostate cancer | dose not given | – | activity | active |
| COC[C@@H](NC(C)=O)C(=O)NCc1ccc(OCc2cccc(F)c2)cc1 | – | mouse, MES seizure | intraperitoneal, time of peak effect | – | ED50 | 13 mg/kg |
| C[C@@H]1C(=O)C=C2[C@H]1CN(C)C[C@@H]2C | – | rabbit | dose not given | – | blood glucose | decreased |
| CC[C@@H]1CN2CCc3c([nH]c4cccc(OC)c34)[C@@H]2C[C@@H]1/C(=C\OC)C(=O)OC | competitive indirect ELISA | urine | – | – | IC50 | 1.2 ng/mL (≈ 3.01 nM) |
| O=[N+]([O-])c1cccc(-c2cc(C3CC4CCC3N4)cnc2F)c1 (racemic) | spontaneous activity | mouse | – | – | ED50 | 6.5 mg/kg |
| CN(C)c1ccc(/C=C/C(=O)c2ccc(OC(=O)N3CCCC3)cc2O)cc1 | – | – | concentration not given | baseline: Trolox | antioxidant activity | 2.83 fold |

Excerpt of the above:
| Structure (SMILES) | test | system | setting | scale | measurement | result |
| --- | --- | --- | --- | --- | --- | --- |
| CC1(O)CC23CC(O)C4(O)C(C5OC5C4(C)C)C(C)(O)C2CCC1C3O (stereo not drawn) | – | diabetic neuropathic pain model | dose not given | baseline: gabapentin | relative potency | 100 fold |
| CC[C@@H]1CN2CCc3c([nH]c4cccc(OC)c34)[C@@H]2C[C@@H]1/C(=C\OC)C(=O)OC | competitive indirect ELISA | urine | – | – | IC50 | 1.2 ng/mL (≈ 3.01 nM) |
